Results gathered from unrelated publications.
Every numbered part comes from another study and shows a few of its results, in no order.

Sample 1
Target: Muscarinic acetylcholine receptor M5 (CHRM5, Homo sapiens, UniProt P08912)
Chain of UniProt P08912 (whole entry, looked up): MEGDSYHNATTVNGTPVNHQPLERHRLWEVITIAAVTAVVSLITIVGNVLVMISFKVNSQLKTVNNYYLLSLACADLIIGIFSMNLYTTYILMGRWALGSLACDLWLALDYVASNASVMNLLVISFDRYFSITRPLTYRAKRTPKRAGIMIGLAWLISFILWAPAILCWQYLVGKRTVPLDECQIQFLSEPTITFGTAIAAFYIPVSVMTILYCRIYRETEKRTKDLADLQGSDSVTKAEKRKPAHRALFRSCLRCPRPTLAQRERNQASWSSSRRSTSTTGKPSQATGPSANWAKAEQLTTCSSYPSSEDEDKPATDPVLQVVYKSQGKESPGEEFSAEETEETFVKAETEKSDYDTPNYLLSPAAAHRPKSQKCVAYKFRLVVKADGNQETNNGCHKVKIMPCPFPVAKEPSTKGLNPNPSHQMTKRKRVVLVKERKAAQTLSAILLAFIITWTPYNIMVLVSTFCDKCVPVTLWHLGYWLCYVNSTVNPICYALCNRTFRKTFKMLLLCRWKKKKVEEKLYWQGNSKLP
Read-out: ligand displacement
Tested at: 10 µM
For `COCCOc1nc(-c2ccc(Cl)nc2)nc2c1CN(C(=O)c1ncn3ccccc13)CC2`, the inhibition was 7.79%.
`O=S(=O)(NC1CCC(c2cc(F)ccc2F)(S(=O)(=O)c2ccc(Cl)cc2)CC1)C(F)(F)F` (stereo not shown) gave an inhibition of 1.96%.
For `NC(=O)c1ccc2nc(-c3ccc(C4(N)CCC4)cc3)c(-c3ccccc3)n2n1`, the inhibition was 1.83%.
With `Cc1c(NC(=O)c2cc(C(N)=O)nc3cc(F)ccc23)c(C(F)(F)F)nn1Cc1ccc(C#N)cc1` the inhibition was 4.88%.
For `CCC(=NO)C(C)=Cc1ccc(F)c(C)c1`, the inhibition was 2.77%.
The inhibition of `CC1CCN(c2ccnc(NCc3cn(C)cn3)n2)CC1` is reported as 25.1%.
The inhibition of `Cc1ncc(-c2cc(Cl)ccc2F)cc1-n1c(=O)n(CC(N)=O)c2ccccc21` is reported as 1.56%.
For `COc1cc(-c2cn(C3CCc4c(F)cccc4N(CC(F)(F)F)C3=O)nn2)ccc1-n1cnc(C)c1` (stereo not shown), the inhibition was 26.1%.
`O=c1nc(-c2ccccn2)sc2ccccc12` has an inhibition of -7.5%.
`CN(C)C(=O)c1sc2nc(N3CCC(S(C)(=O)=O)CC3)cc(C(F)(F)F)c2c1N` gave an inhibition of -6.93%.
For `CN(C)c1ncnc(-c2ccc3nc(Nc4cc(CN5CCN(C(=O)CC(F)(F)F)CC5)ccn4)[nH]c3c2)c1Cl`, the inhibition was 12.4%.
With `CO[C@H]1CC[C@H](CNc2ccc(S(=O)(=O)NC(=O)c3ccc(N4CCN(CC5=C(c6ccc(Cl)cc6)CC(C)(C)CC5)CC4)cc3Oc3cnc4[nH]ccc4c3)cc2[N+](=O)[O-])CC1` the inhibition was 12.5%.
`COc1ccc2cc(OCC3(C(=O)O)CN(C(=O)c4ccc(F)cc4)C3)ccc2c1` gave an inhibition of -7.44%.

Sample 2
Method: exponential regression of PRP log k'
Medium: 1,9-decadiene/PBS
pH: 7.4
For `COCC(=O)NCCCCCC(=O)N[C@H](C(=O)N1C[C@H](O)C[C@H]1C(=O)NCc1ccc(-c2scnc2C)cc1)C(C)(C)C`, the logD (1,9-decadiene/water) was -5.03.
`Cc1ncsc1-c1ccc(CNC(=O)[C@@H]2C[C@@H](O)CN2C(=O)[C@@H](NC(=O)CCCCCOC(=O)CC23C[C@H]4C[C@@H](C2)C[C@@H](C3)C4)C(C)(C)C)cc1` has a logD (1,9-decadiene/water) of 1.97.
With `CCCCOc1ccc(-c2ccc(C(=O)NCCCCCC(=O)N[C@H](C(=O)N3C[C@H](O)C[C@H]3C(=O)NCc3ccc(-c4scnc4C)cc3)C(C)(C)C)cc2)cc1` the logD (1,9-decadiene/water) was 1.54.
For `CCOC(=O)[C@@H]1CSCC(=O)N[C@@H](CC(C)C)C(=O)N(C)[C@@H](C)C(=O)N[C@@H](CC(C)C)C(=O)N2CCC[C@@H]2C(=O)N(CC)CC(=O)N[C@@H](CC2CCCCC2)C(=O)N(C)[C@@H](C)C(=O)N[C@@H](CC(C)C)C(=O)N1C`, the logD (1,9-decadiene/water) was 2.98.
The logD (1,9-decadiene/water) of `CCCC(=O)OCCCCCC(=O)N[C@H](C(=O)N1C[C@H](O)C[C@H]1C(=O)NCc1ccc(-c2scnc2C)cc1)C(C)(C)C` is reported as -1.39.

Sample 3
Target: Serine/threonine-protein kinase BRSK2 (BRSK2, Homo sapiens, UniProt Q8IWQ3)
Chain of UniProt Q8IWQ3 (whole entry, looked up): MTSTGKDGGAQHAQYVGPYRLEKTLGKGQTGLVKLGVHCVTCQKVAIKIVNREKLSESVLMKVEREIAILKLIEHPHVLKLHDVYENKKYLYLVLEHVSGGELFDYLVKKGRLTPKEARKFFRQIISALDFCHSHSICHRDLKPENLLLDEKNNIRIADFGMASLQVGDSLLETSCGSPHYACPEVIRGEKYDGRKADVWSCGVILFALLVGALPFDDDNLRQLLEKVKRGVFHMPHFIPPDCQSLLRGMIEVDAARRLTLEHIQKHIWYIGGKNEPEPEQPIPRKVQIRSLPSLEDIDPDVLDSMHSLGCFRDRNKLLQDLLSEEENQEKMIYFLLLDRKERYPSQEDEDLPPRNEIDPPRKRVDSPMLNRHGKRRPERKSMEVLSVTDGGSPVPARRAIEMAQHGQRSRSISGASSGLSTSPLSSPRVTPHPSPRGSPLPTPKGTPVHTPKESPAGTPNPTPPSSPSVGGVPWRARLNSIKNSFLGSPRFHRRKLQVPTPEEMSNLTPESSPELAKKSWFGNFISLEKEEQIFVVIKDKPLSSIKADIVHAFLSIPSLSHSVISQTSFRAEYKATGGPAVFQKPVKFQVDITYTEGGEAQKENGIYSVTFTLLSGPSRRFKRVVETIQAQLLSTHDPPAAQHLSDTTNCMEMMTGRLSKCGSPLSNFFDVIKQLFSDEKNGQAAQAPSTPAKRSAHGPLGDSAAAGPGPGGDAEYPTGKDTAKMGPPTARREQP
Read-out: enzyme activity
Mode: inhibitor
Tested at: 0.5 µM
Reference: control
For `O=Nc1c(-c2c(O)[nH]c3cc(Br)ccc23)[nH]c2ccccc12`, the remaining activity was 19.4%.
`c1ccc(-c2n[nH]c3c2oc2ccccc23)cc1` gave a remaining activity of 101%.
For `CCCNC(=O)Nc1ccc(Oc2ncnc3cc(OC)c(OC)cc23)cc1Cl`, the remaining activity was 96.7%.
`O=C1NC(=O)c2c1c1c3ccccc3[nH]c1n1cncc21` has a remaining activity of 29.7%.
The remaining activity of `O=C1Cc2c([nH]c3ccc(Br)cc23)-c2ccccc2N1` is reported as 62.7%.
For `O=c1cc(N2CCOCC2)oc2c(-c3ccccc3)cccc12`, the remaining activity was 96.2%.
With `Cc1ccc(S(=O)(=O)/C=C/C#N)cc1` the remaining activity was 99.4%.
With `Oc1cccc(-c2nc(N3CCOCC3)c3oc4ncccc4c3n2)c1` the remaining activity was 97.1%.
The remaining activity of `O=C1NC(=O)c2c1c1c3ccccc3[nH]c1c1[nH]c3cc(Br)ccc3c21` is reported as 35.6%.

Sample 4
Organism: Sarcocystis neurona
Read-out: parasite growth
Tested at: 10 µM
Time: 96 h
Setting: second screen
Reference: untreated
For `CO[C@H]1/C=C/O[C@@]2(C)Oc3c(C)c(O)c4c(O)c(c(/C=N/N5CCN(C)CC5)c(O)c4c3C2=O)NC(=O)/C(C)=C\C=C\[C@H](C)[C@H](O)[C@@H](C)[C@@H](O)[C@@H](C)[C@H](OC(C)=O)[C@@H]1C`, “log2 fold change” read 0.59.
Under “log2 fold change”, `CC1(C)S[C@@H]2[C@H](NC(=O)[C@H](N)c3ccc(O)cc3)C(=O)N2[C@H]1C(=O)O` is recorded as 0.34.
`[H]/N=C(/NC)NCCC[C@H](N)C(=O)O` — result for “log2 fold change”: 0.34.
Under “log2 fold change”, `C[C@@](Cc1ccc(O)c(O)c1)(NN)C(=O)O` is recorded as 0.42.
`CN(C)CCN(Cc1ccccc1)c1ccccn1`: “log2 fold change” 0.39.
`Cc1nc2ccc(CN(C)c3ccc(C(=O)N[C@@H](CCC(=O)O)C(=O)O)s3)cc2c(=O)[nH]1`: “log2 fold change” 0.52.
`CN(C)CCC=C1c2ccccc2COc2ccccc21` — result for “log2 fold change”: 0.28.
`C[N+]1(C)CCC(OC(=O)C(O)(c2ccccc2)C2CCCC2)C1` (stereo not shown) — result for “log2 fold change”: 0.62.
`C[C@H]1O[C@@H](O[C@H]2[C@@H](O)C[C@H](O[C@H]3[C@@H](O)C[C@H](O[C@H]4CC[C@@]5(C)[C@H](CC[C@@H]6[C@@H]5C[C@@H](O)[C@]5(C)[C@@H](C7=CC(=O)OC7)CC[C@]65O)C4)O[C@@H]3C)O[C@@H]2C)C[C@H](O)[C@@H]1O`: “log2 fold change” -0.63.
`Nc1nc(=O)c2nc(CNc3ccc(C(=O)N[C@@H](CCC(=O)O)C(=O)O)cc3)cnc2[nH]1`: “log2 fold change” 0.1.

Repeated from above (sample 1):
With `Cc1c(NC(=O)c2cc(C(N)=O)nc3cc(F)ccc23)c(C(F)(F)F)nn1Cc1ccc(C#N)cc1` the inhibition was 4.88%.
For `CCC(=NO)C(C)=Cc1ccc(F)c(C)c1`, the inhibition was 2.77%.
The inhibition of `CC1CCN(c2ccnc(NCc3cn(C)cn3)n2)CC1` is reported as 25.1%.
